Measured values collected from several papers.
Each line is one published result; not all experiments were run side by side.
Target: Serine/threonine-protein kinase BRSK2 (BRSK2, Homo sapiens, UniProt Q8IWQ3)
Residues used in one study (Q8IWQ3 1-736): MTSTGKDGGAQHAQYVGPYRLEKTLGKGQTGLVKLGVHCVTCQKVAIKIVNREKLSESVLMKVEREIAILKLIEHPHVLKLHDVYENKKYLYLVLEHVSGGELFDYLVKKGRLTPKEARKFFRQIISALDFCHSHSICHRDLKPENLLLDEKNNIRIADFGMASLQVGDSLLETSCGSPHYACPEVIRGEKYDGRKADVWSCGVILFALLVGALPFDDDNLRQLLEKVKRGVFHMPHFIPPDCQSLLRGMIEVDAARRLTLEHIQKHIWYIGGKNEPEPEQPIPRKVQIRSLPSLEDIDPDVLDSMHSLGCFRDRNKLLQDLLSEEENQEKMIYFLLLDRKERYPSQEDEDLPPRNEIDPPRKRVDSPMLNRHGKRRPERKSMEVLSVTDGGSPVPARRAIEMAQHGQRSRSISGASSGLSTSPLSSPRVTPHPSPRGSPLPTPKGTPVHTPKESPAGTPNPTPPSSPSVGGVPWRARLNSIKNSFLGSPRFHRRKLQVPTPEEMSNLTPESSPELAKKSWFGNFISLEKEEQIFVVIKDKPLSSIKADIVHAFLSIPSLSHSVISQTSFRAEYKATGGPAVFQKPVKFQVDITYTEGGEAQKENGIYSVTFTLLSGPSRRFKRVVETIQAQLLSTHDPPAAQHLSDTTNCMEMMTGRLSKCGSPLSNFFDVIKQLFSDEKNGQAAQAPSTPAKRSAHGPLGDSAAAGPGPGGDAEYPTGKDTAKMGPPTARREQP

`CNC(=O)C1CCN(c2cc(C)c(F)cc2NC(=O)c2ccc(-c3cc(O)ccc3C)c(C)c2)CC1` gave a remaining binding of 94% (binding, competition with immobilised ligand; 1 µM).
With `Nc1nc(Nc2ccccc2)sc1C(=O)c1ccccc1` the remaining activity was 42% (enzyme activity, inhibitor; 10 µM).
With `Cc1cccc(-c2ccc3nc(NC(=O)C4CCCO4)nn3c2)c1` (stereo not drawn) the remaining activity was 71% (enzyme activity, Dundee kinase panel; 10 µM).
The remaining binding of `CCN1CCN(Cc2ccc(C(=O)Nc3ccc(C)c(NCc4cnc5[nH]ccc5c4OC)c3)cc2C(F)(F)F)CC1` is reported as 62% (binding, competition with immobilised ligand; 1 µM).
`C=CC(=O)N1CCc2ccc(-n3c(=O)ccc4cnc5ccc(-c6cnn(C)c6)cc5c43)cc21` has a remaining binding of 100% (KINOMEscan; 1 µM; reference: DMSO control).
For `Cc1cccc(O[C@H]2CCC[C@@H](C(C)CNCc3ccncc3)C2)c1` (relative stereo), the inhibition was 0% (enzyme activity, inhibitor; 1 µM).
`Nc1ncc2c(n1)-c1c([nH]c3ccc(C4=CCOCC4)cc13)CCC2` has a remaining binding of 100% (binding, competition with immobilised ligand; 1 µM).
`CN1CC[C@@H](COc2cnc(C#N)cc2-c2ccn3nc(NC(=O)C4CC4)cc3c2)C1` has an inhibition of 5% (enzyme activity, inhibitor; 1 µM).
For `COc1cc(Nc2nc(C)cc(-c3cnn4nc(OC)ccc34)n2)cc(C(F)(F)F)c1`, the remaining activity was 94% (inhibitor; 1 µM; reference: control).
`Cc1cnc2nc1Nc1cccc(c1)COC/C=C/COCc1cc(ccc1OCCN1CCOCC1)N2` has a remaining binding of 92% (binding; 0.1 µM).
`C=CC(=O)Nc1cccc(-c2cnc3[nH]cc(C(=O)NC(C)(C)C)c3n2)c1` has an inhibition of 36% (enzyme activity, inhibitor; 0.1 µM).
`O=C(Cc1ccc(OCc2ccccc2)cc1)NC1(C(=O)O)CCN(C(=O)c2ccc(-c3cccc(Cl)c3)cc2)CC1`: “activity vs control” 174% (enzyme activity, inhibitor; 10 µM).
The remaining activity of `Cc1cccc(-c2ccc3nc(NC(=O)C4CCCCC4)nn3c2)c1` is reported as 64% (enzyme activity, Dundee kinase panel; 10 µM).
`COc1ccc(NC(=O)Nc2ccc3c(c2)C(=O)N(C(C)CO)CC(C)C(CN(C)Cc2ccc4c(c2)OCO4)O3)cc1` (stereo not drawn) gave a remaining activity of 107% (kinase activity, KinaseProfiler; 0.03 µM, species human; reference: control).
`NC(=O)[C@@H](O)C[C@H]1CCc2sc3ncnc(O[C@H]4CC[C@H](N5CCOCC5)CC4)c3c21` gave an inhibition of 5% (enzyme activity, inhibitor; 10 µM).
`CNC1C[S+]2CC[S+]3CC[S+](C1)[Ru-4]321([N]=C=S)[n]2c3ccc(OC)cc3c3c4c(c5cc(F)c[n+]1c5c32)C(=O)NC4=O` (stereo not drawn) gave a remaining binding of 62% (KinomeScan; 0.1 µM; reference: untreated).
The remaining activity of `COc1c(OCCCN2CCOCC2)ccc2c1N=C(NC(=O)c1cnc(N)nc1)N1CCN=C21` is reported as 108% (kinase activity, inhibitor; 1 µM; reference: untreated control).
With `Cc1nc2c(F)cc(-c3nc(Nc4ccc(CNC(=O)CCCCCCC(=O)NO)cc4)ncc3F)cc2n1C(C)C` the inhibition was 80% (enzyme activity, inhibitor; 1 µM).

For quick reference, copied from above:
`CNC1C[S+]2CC[S+]3CC[S+](C1)[Ru-4]321([N]=C=S)[n]2c3ccc(OC)cc3c3c4c(c5cc(F)c[n+]1c5c32)C(=O)NC4=O` (stereo not drawn) gave a remaining binding of 62% (KinomeScan; 0.1 µM; reference: untreated).
